Measured values of several laboratories.
Each numbered part is a random draw from the data of one study; scales do not carry over between parts.

Study 1
Target: Histone acetyltransferase KAT6A, winged helix 2, GST fusion (KAT6A, Homo sapiens, UniProt Q92794, residues 85-181)
Technique: protein binding microarray
Molecule type: double-stranded DNA, one strand shown
Medium: in vitro
Concentration: not given
Notes: 8-mer, flanks averaged, mean of 2 arrays, mostly near background
Reference: not given
Direction: higher = stronger binding
Construct (chain): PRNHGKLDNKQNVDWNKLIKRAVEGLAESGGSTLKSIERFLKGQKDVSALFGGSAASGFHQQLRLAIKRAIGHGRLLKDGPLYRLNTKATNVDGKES
Strand	E-score
GAGTAGCC	-0.0337
CCAGCGTC	0.0434
AATACGGG	-0.0981
GCCGTGCA	0.124
AGGCTTAC	-0.0656
ATTGTTCG	0.3
CTCCTCTA	-0.159
ACGCCGAA	0.121
GAGACGAC	-0.0257
TAACTCCA	-0.0154
GGGTTACC	-0.14
ATTGCCAA	0.0583
AAGAGACC	0.13
CACTGCAG	0.0753
AGATAACT	-0.186
ACTGAGCT	0.0567
GAGCGCAA	0.0157
AATCGGAT	0.129
ACACGATC	-0.107
GCTGGAGA	0.0318

Study 2
Target: Sal-like protein 4, full length isoform B (SALL4, Homo sapiens, UniProt Q9UJQ4-2, residues 1-616)
Technique: universal PBM
Molecule type: double-stranded DNA, one strand shown
Medium: in vitro
Concentration: not given
Notes: 8-mer, flanks averaged, mean of replicates
Direction: higher = stronger binding
Strand	E-score
AAGAGAAT	0.0718
AAGGTTGC	-0.133
AAAGGCCG	-0.139
CGGCATGC	-0.259
CCGTGTTA	-0.113
ACGTATTG	0.0914
CGTCGTCA	-0.0491
TAACCGAA	0.0551
AAGTGAGC	-0.19
ACGGTGCT	-0.188
CCGCAATC	-0.209
CCCTCGCC	-0.324
GCGAGGCA	-0.152
CTTCAAAG	0.208
GTAAATCA	0.243
TCGCTAAA	0.0734
ACACAGAG	-0.0414
AAGTACTT	0.107

Study 3
Target: RING finger protein unkempt homolog, zinc fingers 1-6, SBP tag (UNK, Homo sapiens, UniProt Q9C0B0, residues 30-357)
UniProt Q9C0B0, sequence (30-357, looked up): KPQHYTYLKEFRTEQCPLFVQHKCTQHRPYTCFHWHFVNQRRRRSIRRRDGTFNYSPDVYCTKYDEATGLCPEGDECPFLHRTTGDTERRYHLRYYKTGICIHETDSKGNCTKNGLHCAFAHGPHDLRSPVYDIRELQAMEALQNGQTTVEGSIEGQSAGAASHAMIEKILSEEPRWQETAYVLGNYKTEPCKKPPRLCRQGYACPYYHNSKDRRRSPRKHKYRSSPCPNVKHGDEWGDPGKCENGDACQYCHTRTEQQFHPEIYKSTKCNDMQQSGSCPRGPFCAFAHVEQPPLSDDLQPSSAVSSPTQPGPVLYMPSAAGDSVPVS
Technique: RNA Bind-n-Seq
Molecule type: RNA
Medium: in vitro
Concentration: 100 nM
Notes: RNA with constant flanks, vertebrate orthologous sites, ends assumed
Reference: input RNA pool
Direction: higher = stronger binding
All sequences stand within: GGGAGUUCUACAGUCCGACGAUC … CAACAGAGGAUUGAGCAUCA
Strand	bound/input enrichment [ratio]
UUCAGGCACAACUGACUGGUUCACAGCAUUCCUUACAUAGCUAUCUAUCAAAUGCAAGUGUAGUUAAUUUUCAGGAAACAAGCAGGCAGUCAUCUUUAUCCUGUAGCCCAAUCGGAGAUU	1.47
CAUUAACACACAAAAUGUCUCCAGGGGGGUAUUAGAUUUGAUUUCUUACAUAUAAAACAAACCAGCCAACCAUUUUUAAAGUAGAAGAGGGUCUCUGAUAGUAAAUGAAAUACUCUUUUU	1.61
CAGCCAACUCCCUUAUCGGCCGGGCUGCUCACAUCGCUGUCCUCGACUCUGAGAUCUUCCUGGAGAAGUUCUUCCUUGUUGCGGGCCUCAAGUUCUUUCAGUAGAACAGCGACAGAUUCA	0.493
AGCCACCCAAGGAUUCAGGACUGGCUUUACAAAUCUUCCCAACAGAUUCGGAACUAACGCCAGAGGCCAGCCCAGACCGUGAUACUCUCCCGUUGCGUUUUAUUUAUUGGCGUCAGAGUA	0.418
CUACUGUAAACAACUCAGGGCAGUACUCUCGAUACCCUUACAGUAACCUAAAUCAGGGAUUAGUUAACAGUACAGGGAUGAAUCAGAACUUAGGCCUUACAAACAGUUCUCCAAUGAAUC	0.744
GUUGUGACCCAUUUAACAUACACAAAAAACUAGCCAAAAAAAAUUUGCAUGUGAUUGACUUAGAUGAUGCCACUUUCCUGAGUGCAAAAUUUGGAAGACAGCUUGUACCCGGUUGGAAGC	1.51
CUACGUGAAAUAUGGAUGCAGUGUAUAAAAAGGCAGUGACUUCAGCUUUAUAUAUAUAUAUUGUUAGUUUUAGAGUUAUUCACAUUUAUUUAAACUUUUAGAUUGGAUUGUUUGCUAUUG	2.19
ACUUUUUACCUUUUUUAUCACCUCAGUGAGGUAACGUCUCCCUUGGCAUUUAGCUGGUACUGGAGCUAGUCAUUCCUAAUAAGUUUUUUUACAUUGCAUUUCUUUCACACUCAUUAUCAU	2.34

Study 4
Target: Fragile X messenger ribonucleoprotein 1, C-terminal low-complexity region (Fmr1, Mus musculus, UniProt P35922)
Technique: RNA Bind-n-Seq
Molecule type: RNA
Medium: in vitro
Concentration: 200 nM
Notes: whole 134-nt RNA, ends assumed
Together with: 150 mM LiCl
Reference: input library
Direction: higher = stronger binding
Each molecule: 7-deaza-guanosine replaces G
All sequences stand within: GGGAGUUCUACAGUCCGACGAUC … UGGAAUUCUCGGGUGUCAAGG
Strand	log2 enrichment
CAAGUCCUGUGCUACACAUCGUAUGUACCGAAUCGGGGCCGGGCCGGGGCCGGGGAAAGUAUUAUGUUACGCCGUUCGGAUCUGCACUUC	0.0516
UCCUGUGCUACACAUCGUAUGUACCGAAUCGGGGUUUUUGGGGAAAAAAAGGGGUGGGGAAAGUAUUAUGUUACGCCGUUCGGAUCUGCA	-1.03
UCAAGUCCUGUGCUACACAUCGUAUGUACCGAAUCGGGCCGGGGCCGGGGCCGGAAAGUAUUAUGUUACGCCGUUCGGAUCUGCACUUCC	0.285
CACAGACAACACGCACCCACACAGACACAGAAGGAAGGGGUUGGGAUGGGGACAGGGUGCACAGCAGGGCGGGGUAGGACCCCAGCCCCU	0.533
UUUUACAUUUAUACACAUGUAUUGGCUUCCUUUUACACUAUUAGGCGGUCAAGAAGCAGAUCGAGACGGCGGUCACAUUCUAAGUCUAGG	0.77
UAACUUUAGAGGAGGAUCUGAUCGAUAUGGCAGUGGACGUGGAUUUGGGGAUGGCUAUAAUGGGUAUGGAGGAGGACCUGGAGGUGGCAA	0.609
AAGUCCUGUGCUACACAUCGUAUGUACCGAAUCGGGGUUUUGGGUUUUGGUUUUGGGAAAGUAUUAUGUUACGCCGUUCGGAUCUGCACU	-2.03
AGUCCUGUGCUACACAUCGUAUGUACCGAAUCGGAAAAAGGAAAAAGGGGAAAAAGGAAAGUAUUAUGUUACGCCGUUCGGAUCUGCACU	-1.37

For quick reference, copied from above (study 2):
Strand	E-score
CCGCAATC	-0.209
CCCTCGCC	-0.324
GCGAGGCA	-0.152
CTTCAAAG	0.208
GTAAATCA	0.243
TCGCTAAA	0.0734
ACACAGAG	-0.0414
AAGTACTT	0.107
